Experimental data pooled from the literature.
Numbered parts are unrelated; each lists some results of a single study.

Series 1 — technique: protein binding microarray; form: double-stranded DNA, one strand shown; sample: in vitro; concentration: not given; reference: not given; direction: higher = stronger binding
Target: Histone acetyltransferase KAT6A, winged helix 1, GST fusion (KAT6A, Homo sapiens, UniProt Q92794, residues 1-85)
Notes: 8-mer, flanks averaged, mean of 2 arrays, mostly near background
Target sequence (chain): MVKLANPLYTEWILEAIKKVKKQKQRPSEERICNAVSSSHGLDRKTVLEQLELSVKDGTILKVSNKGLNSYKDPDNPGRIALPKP
Sequence	E-score
AGTGCTGG	-0.162
AAAATGCC	-0.101
ATAATCGC	0.103
CGTTCAAG	-0.018
GACATACA	0.0233
ATAGTCGC	0.121
GCTTGTAC	0.0974
TATCTCCA	-0.172
ATACGAAG	-0.0104
GAGAACGA	-0.0999
GACAAAGC	0.0705
GGGGGTAC	0.116
GGACCCTA	-0.193
CTAATAAG	-0.136
ATTTGAAA	-0.0819
AGGAGTAC	-0.162
ACTGTTGC	-0.0242
ACAGCTAG	-0.165
ACGAGGAG	-0.272
CGAATGTC	-0.0895

Series 2 — technique: protein-binding microarray; form: double-stranded DNA, one strand shown; sample: in vitro; concentration: 2540 nM top; notes: 60-bp whole probe; with: salmon DNA 0.4 mg/ml; reference: random background probes; direction: higher = stronger binding; shared flanks, not repeated: GCCTAGCAC … GTCTTGATTCGCTTGACGCTGCTG
Target: Interferon regulatory factor 3, full length, phosphomimetic (IRF3, Homo sapiens, UniProt Q14653, residues 1-427, S386D/S396D/S398D/S402D/T404D/S405D)
Construct (chain): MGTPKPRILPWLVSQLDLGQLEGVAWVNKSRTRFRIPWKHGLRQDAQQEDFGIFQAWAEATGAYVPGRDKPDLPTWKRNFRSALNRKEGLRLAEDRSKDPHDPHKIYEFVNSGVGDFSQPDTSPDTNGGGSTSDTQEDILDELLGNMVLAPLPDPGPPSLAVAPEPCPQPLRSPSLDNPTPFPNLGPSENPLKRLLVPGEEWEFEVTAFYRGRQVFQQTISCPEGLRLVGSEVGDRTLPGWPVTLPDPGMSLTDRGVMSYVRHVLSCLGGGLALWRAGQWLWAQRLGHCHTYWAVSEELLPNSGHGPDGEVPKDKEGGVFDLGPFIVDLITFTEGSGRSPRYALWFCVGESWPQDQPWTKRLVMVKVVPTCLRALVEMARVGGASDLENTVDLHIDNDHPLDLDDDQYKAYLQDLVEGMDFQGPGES
Sequence	fitted relative affinity [z-score]
GACGGTCTCCTCTTCCTGACGTGCTAG	0.921
GACGGTCTCCTTATCCTAACGTGCTAG	2.99
TTAGGTTTTGGGTATCGGTTAGTGCTA	1.38
GGATGTTGCAAATATTGCTAGGTGCTA	0.068
ATAGGTTTCCTTCTCCTTTAGTGCTAG	10.1
TCACATTCCAATTCTTTTACTGTGCTA	3.48
TTAGAACTGGGGTTTCGATTGGTGCTA	0.504
TTAGATATCGGTCTCGGTTAGTGCTAG	1.72
TCAGCTGTTTTTCTCACACTGTGCTAG	0.906
GACGGACGGGGACTGGGGACGTGCTAG	-0.928
GACGGTATCGACTATCGCGACGTGCTA	0.556
GACGATTTCCGGTATCGAGACGTGCTA	1.97
TTAGGTTTCCTAATCCTTTAGTGCTAG	6.75
TCAGTTTTGCTAAGTCAAACTGTGCTA	1.25
GACGGTATCGGGTTTCGGTACGTGCTA	4.09
GATGGTTCCCTTTTCCTGACGTGCTAG	6.47
TTAGGTTTCCTTTCTCTTTAGTGCTAG	12.7
GACGATCTGGGGTATCGAGACGTGCTA	-0.347
TTAGGTTCCGGTTTCGGTAAGTGCTAG	7.24

Series 3 — technique: RNA Bind-n-Seq; form: RNA; sample: in vitro; concentration: 365 nM; reference: no-protein control; direction: higher = stronger binding
Target: RNA binding protein fox-1 homolog 2, RRM domain, GST-SBP tag (RBFOX2, Homo sapiens, UniProt O43251-10, residues 100-194)
Notes: natural RNA segment, single round, ends assumed
Shared flanks, not repeated: GGGAGUUCUACAGUCCGACGAUC … UGGAAUUCUCGGGUGCCAA
Construct (chain): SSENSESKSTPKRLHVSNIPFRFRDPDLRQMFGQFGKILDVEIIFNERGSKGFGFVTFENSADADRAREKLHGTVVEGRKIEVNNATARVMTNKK
Sequence	RBNS enrichment (R)
ACCGAUGAUUAGCAUUUAUGAUGCAGAGACAGAACAACUUCGUAUAGGACCGUACUCCUGGACACCAUUUCCACAUGUGGAUUUCUGGUUGCACCAAGAUGACAAGCAAA	0.241
UUCAGGGGCUGCCCGCUCCCAGUGUCUUCCUGUGGGGGAAGAGCACAGCCCUCCCGCCCCUUCCCCGAGGGAUGAUGCCACACCAAGCUGUGCCACCCUGGGCUCUGUGG	0.444
CCCCAACCCCAGAUGGGCCCAGGCAGGGAGCAGCCCUGCCCAUGCCCACACUACAGGCCCGGAGCUUUGGGGCUGGGUACAUGUGCCAAGCCUCCCUCCCUGGGCUACAG	0.174
UGUAUAGAAAAUUCUUGAGAAGUAACUGUCCGCUAGAAGUCUGUCCAAAUUUAAAAUGUGUGCCAUAUUCUGGUUCUUGAAAAUAAGAUUCCAGAGCUCUUUGAUCGCUU	0.867
UGAGGUCCCAGAGCCUGUUCCGUUGGCCCUGGGCCGAGGCCCACAGGUGCUGCCCUUGCUGCUGCUGGUCGGGCACCCAAGUGCGUGAGGGGCUUCAGCCUGUCCCGGGG	0.579
UAUCAGAAGAUUCAUUUACAGGGAGACAAGCUUGCUGCCCUAAUUCCCAGCUCUCCCCAGUGUCCAGAUCCUCUCUGGAAGAGACUAUAAAAUAAACGUGGGUGCCAGGG	0.615
CACAGAGGUUUCAAGUGGAAAGCCAUUCAUCUUAAAAGCUGAACAGAAAAAUUAAAAAAAAAAAAAACACAUUACAAUCUGGCCUUUUAGAAAAUGAAGCAGUAGAAACA	0.652
CAGAAUGAGAGAAGACAUUCAUGUACCACCUACUAGUCCCUCUCUCCCCAACCUCUGCCAGGGCAAUCUCUAACUUCAAUCCCGCCUUCGACAGUGAAAAAGCUCUACUU	0.402

Series 4 — technique: universal PBM; form: double-stranded DNA, one strand shown; sample: in vitro; concentration: not given; direction: higher = stronger binding
Target: Sal-like protein 4, full length isoform B (SALL4, Homo sapiens, UniProt Q9UJQ4-2, residues 1-616)
Notes: 8-mer, flanks averaged, mean of replicates
Sequence	E-score
AGCTTGCC	-0.106
GAGGTACA	0.0261
ATCTTACG	0.117
AGCTTAAA	-0.0177
AGGTTTGC	-0.0765
CGGAGTCC	-0.221
ATATCTTC	0.273
GTTCCGGA	-0.152
AACAAGGG	0.00721
CGGGTACA	-0.177
CGTTGGTA	-0.0148
ATAACGGA	0.231
ACTGAACT	0.034
GAAGCGAC	-0.101
GCCCGCTA	-0.208
CGACAGTA	-0.0249
CTAATAGC	0.134
ACCATTTA	0.229
AACGCGGG	-0.317
TGAACGAA	0.0487
CAGAAAAG	-0.00039
CTGACAAG	0.0275
ATTGCGCC	-0.00068
CCACAAGC	-0.18
CCGTGCTA	-0.15
